Measured values pooled from the literature.
Several values in a cell are separate wells, animals, samples, runs or records. ± gives the spread as reported.
B1: calnexin; sequence looked up; chain HDGHDDDVIDIEDDLDDVIEEVEDSKPDTTAPPSSPKVTYKAPVPTGEVYFADSFDRGTLSGWILSKAKKDDTDDEIAKYDGKWEVEEMKESKLPGDKGLVLMSRAKHHAISAKLNKPFLFDTKPLIVQYEVNFQNGIECGGAYVKLLSKTPELNLDQFHDKTPYTIMFGPDKCGEDYKLHFIFRHKNPKTGIYEEKHAKRPDADLKTYFTDKKTHLYTLILNPDNSFEILVDQSVVNSGNLLNDMTPPVNPSREIEDPEDRKPEDWDERPKIPDPEAVKPDDWDEDAPAKIPDEEATKPEGWLDDEPEYVPDPDAEKPEDWDEDMDGEWEAPQIANPRCESAPGCGVWQRPVIDNPNYKGKWKPPMIDNPSYQGIWKPRKIPNPDFFEDLEPFRMTPFSAIGLELWSMTSDIFFDNFIICADRRIVDDWANDGWGLKKAADGAAEPGVVGQMIEAAEERPWLWVVYILTVALPVFLVILFCCSGKKQTSGMEYKKTDAPQPDVKEEEEEKEEEKDKGDEEEEGEEKLEEKQKSDAEEDGGTVSQEEEDRKPKAEEDEILNRSPRNRKPRRE
B2: CSE1L; sequence looked up; chain MELSDANLQTLTEYLKKTLDPDPAIRRPAEKFLESVEGNQNYPLLLLTLLEKSQDNVIKVCASVTFKNYIKRNWRIVEDEPNKICEADRVAIKANIVHLMLSSPEQIQKQLSDAISIIGREDFPQKWPDLLTEMVNRFQSGDFHVINGVLRTAHSLFKRYRHEFKSNELWTEIKLVLDAFALPLTNLFKATIELCSTHANDASALRILFSSLILISKLFYSLNFQDLPEFFEDNMETWMNNFHTLLTLDNKLLQTDDEEEAGLLELLKSQICDNAALYAQKYDEEFQRYLPRFVTAIWNLLVTTGQEVKYDLLVSNAIQFLASVCERPHYKNLFEDQNTLTSICEKVIVPNMEFRAADEEAFEDNSEEYIRRDLEGSDIDTRRRAACDLVRGLCKFFEGPVTGIFSGYVNSMLQEYAKNPSVNWKHKDAAIYLVTSLASKAQTQKHGITQANELVNLTEFFVNHILPDLKSANVNEFPVLKADGIKYIMIFRNQVPKEHLLVSIPLLINHLQAESIVVHTYAAHALERLFTMRGPNNATLFTAAEIAPFVEILLTNLFKALTLPGSSENEYIMKAIMRSFSLLQEAIIPYIPTLITQLTQKLLAVSKNPSKPHFNHYMFEAICLSIRITCKANPAAVVNFEEALFLVFTEILQNDVQEFIPYVFQVMSLLLETHKNDIPSSYMALFPHLLQPVLWERTGNIPALVRLLQAFLERGSNTIASAAADKIPGLLGVFQKLIASKANDHQGFYLLNSIIEHMPPESVDQYRKQIFILLFQRLQNSKTTKFIKSFLVFINLYCIKYGALALQEIFDGIQPKMFGMVLEKIIIPEIQKVSGNVEKKICAVGITKLLTECPPMMDTEYTKLWTPLLQSLIGLFELPEDDTIPDEEHFIDIEDTPGYQTAFSQLAFAGKKEHDPVGQMVNNPKIHLAQSLHKLSTACPGRVPSMVSTSLNAEALQYLQGYLQAASVTLL
B3: CIZ1; sequence looked up; chain MFSQQQQQQLQQQQQQLQQLQQQQLQQQQLQQQQLLQLQQLLQQSPPQAPLPMAVSRGLPPQQPQQPLLNLQGTNSASLLNGSMLQRALLLQQLQGLDQFAMPPATYDTAGLTMPTATLGNLRGYGMASPGLAAPSLTPPQLATPNLQQFFPQATRQSLLGPPPVGVPMNPSQFNLSGRNPQKQARTSSSTTPNRKDSSSQTMPVEDKSDPPEGSEEAAEPRMDTPEDQDLPPCPEDIAKEKRTPAPEPEPCEASELPAKRLRSSEEPTEKEPPGQLQVKAQPQARMTVPKQTQTPDLLPEALEAQVLPRFQPRVLQVQAQVQSQTQPRIPSTDTQVQPKLQKQAQTQTSPEHLVLQQKQVQPQLQQEAEPQKQVQPQVQPQAHSQGPRQVQLQQEAEPLKQVQPQVQPQAHSQPPRQVQLQLQKQVQTQTYPQVHTQAQPSVQPQEHPPAQVSVQPPEQTHEQPHTQPQVSLLAPEQTPVVVHVCGLEMPPDAVEAGGGMEKTLPEPVGTQVSMEEIQNESACGLDVGECENRAREMPGVWGAGGSLKVTILQSSDSRAFSTVPLTPVPRPSDSVSSTPAATSTPSKQALQFFCYICKASCSSQQEFQDHMSEPQHQQRLGEIQHMSQACLLSLLPVPRDVLETEDEEPPPRRWCNTCQLYYMGDLIQHRRTQDHKIAKQSLRPFCTVCNRYFKTPRKFVEHVKSQGHKDKAKELKSLEKEIAGQDEDHFITVDAVGCFEGDEEEEEDDEDEEEIEVEEELCKQVRSRDISREEWKGSETYSPNTAYGVDFLVPVMGYICRICHKFYHSNSGAQLSHCKSLGHFENLQKYKAAKNPSPTTRPVSRRCAINARNALTALFTSSGRPPSQPNTQDKTPSKVTARPSQPPLPRRSTRLKT
B4: AKAP8; sequence looked up; chain MDQGYGGYGAWSAGPANTQGAYGTGVASWQGYENYNYYGAQNTSVTTGATYSYGPASWEAAKANDGGLAAGAPAMHMASYGPEPCTDNSDSLIAKINQRLDMMSKEGGRGGSGGGGEGIQDRESSFRFQPFESYDSRPCLPEHNPYRPSYSYDYEFDLGSDRNGSFGGQYSECRDPARERGSLDGFMRGRGQGRFQDRSNPGTFMRSDPFVPPAASSEPLSTPWNELNYVGGRGLGGPSPSRPPPSLFSQSMAPDYGVMGMQGAGGYDSTMPYGCGRSQPRMRDRDRPKRRGFDRFGPDGTGRKRKQFQLYEEPDTKLARVDSEGDFSENDDAAGDFRSGDEEFKGEDELCDSGRQRGEKEDEDEDVKKRREKQRRRDRTRDRAADRIQFACSVCKFRSFDDEEIQKHLQSKFHKETLRFISTKLPDKTVEFLQEYIVNRNKKIEKRRQELMEKETAKPKPDPFKGIGQEHFFKKIEAAHCLACDMLIPAQPQLLQRHLHSVDHNHNRRLAAEQFKKTSLHVAKSVLNNRHIVKMLEKYLKGEDPFTSETVDPEMEGDDNLGGEDKKETPEEVAADVLAEVITAAVRAVDGEGAPAPESSGEPAEDEGPTDTAEAGSDPQAEQLLEEQVPCGTAHEKGVPKARSEAAEAGNGAETMAAEAESAQTRVAPAPAAADAEVEQTDAESKDAVPTE
B5: C1orf122 protein; sequence looked up; chain MEWGPGSDWSRGEAAGVDRGKAGLGLGGRPPPQPPREERAQQLLDAVEQRQRQLLDTIAACEEMLRQLGRRRPEPAGGGNVSAKPGAPPQPAVSARGGFPKDAGDGAAEP

The IC50 of `(−)-antroquinonol A` is reported as 14.5 ± 1.1 µM (A549; cytotoxicity, MTS; 72 h).
For `colistin`, “radial growth ratio” read 0.873 and 0.789 and 0.901 and 0.9 and 0.871 and 0.8 and 0.786 and 0.914 (Aspergillus fumigatus; wild type, minimal medium; concentration not given; reference: untreated).
`HFIKEKGGL` has an IC50 of over 20 µM (Mamu-A1*02601 MHC class I; peptide binding; peptide, Chinese rhesus macaque).
`KISEYRHYC` gave a specific lysis of 10.2% (HN12 (HLA-A2+ HPV+); 111In release; peptide; concentration not given, 16 h, E:T 25:1 IVS 5, together with: peptide-generated T-cell line).
`B1 (calnexin)` — result for “log2 fold change”: -0.15 (peptide binding, SILAC pull-down; concentration not given; reference: non-acetylated over acetylated NIT1 peptide).
For `oseltamivir carboxylate`, the EC50 was 2900 nM (Influenza B virus; cytopathic effect, visual CPE score; MDCK).
For `lead`, the viability was 0.55 (U87 glioblastoma; CCK-8; 1 µM, 24 h, unit not given; reference: untreated control).
The inhibition of `aspterric acid` is reported as 99.2% (root length; Arabidopsis thaliana Col-0 seeds; 50 µg/mL).
`QNLAIESIP` gave an IC50 of over 20 µM (Mamu-B*08301 MHC class I; peptide binding; peptide, Chinese rhesus macaque).
Under “log2 fold change”, `CDKN2A` is recorded as 2.3 (peptide binding, SILAC pull-down; concentration not given; reference: non-acetylated over acetylated NIT1 peptide).
The specific lysis of `KLPQLCTEV` is reported as 2.1% (HN-30 (HLA-A2− HPV+); 111In release; peptide; concentration not given, 16 h, E:T 25:1 IVS 5, together with: peptide-generated T-cell line).
`GWTLNSAGYLLGPRRIDHLLMIKEMPIARGREEAPGA / YAVDNHRSFNDKHGFT-NH2 (C-amide)` gave a mRNA level of 0.0818 and 0.112 and 0.025 and 0.0709 and 0.0458 and 0.0342 and 0.0806 (RT-qPCR, item: Il1b; chicken, DSS-induced colitis, ileum; ip, 50 µM, unit not given; reference: Actb).
`nonaarginine` has a kon of 1.2 ± 0.1 µM⁻¹ s⁻¹ (PorA peptide pore; peptide binding, planar bilayer single-channel recording; 0.5 µM, pH 7.4, -10 mV, cis side, 150 mM KCl).
`B2 (CSE1L)`: “log2 fold change” 2.67 (peptide binding, SILAC pull-down; concentration not given; reference: non-acetylated over acetylated NIT1 peptide).
The p-PKA level of `pertussis toxin` is reported as 17.9 MFI (immunostaining; humanized mouse, SAH model, meningeal F4/80+ macrophages; dose not given).
For `B3 (CIZ1)`, “log2 fold change” read -0.421 (peptide binding, SILAC pull-down; concentration not given; reference: non-acetylated over acetylated NIT1 peptide).
With `Polymyxin B` the MIC was 0.5 µg/mL (Pseudomonas aeruginosa; broth microdilution; P2 clinical isolate; 20 h).
For `Met-enkephalin-Arg-Phe`, “maximum possible effect” read -1.64% and 5.93% and 4.47% and 13.8% and 1.87% and 8.83% and -5.35% and 10.2% (antinociception, hot plate; male ICR-CD1 mice; intracerebroventricular, 50 µg/animal, 45 min).
`GWTLNSAGYLLGPHAVDNHRSFNDKHGFT-NH2 (C-amide)` gave a mRNA level of 0.026 and 0.0368 and 0.111 and 0.037 and 0.0685 and 0.011 and 0.117 (RT-qPCR, item: Il1b; peptide, chicken, DSS-induced colitis, ileum; ip, 50 µM, unit not given; reference: Actb).
With `Polymyxin B` the MIC was 2 µM (Escherichia coli; broth microdilution, MH medium; carbapenem-resistant NCCP 16044; 16 h, 37 °C).
`PCSEETPAISPSK (dUTPase)`: “log2 fold change” -0.224 (peptide binding, SILAC pull-down; concentration not given; reference: non-acetylated over acetylated NIT1 peptide).
With `CCYHCQFCF` the IC50 was over 20 µM (Mamu-B*08301 MHC class I; peptide binding; peptide, Chinese rhesus macaque).
`mastoparan`: “concentration for maximal DNA synthesis” 17 µM (Swiss 3T3 quiescent; [3H]thymidine incorporation; 40 h, together with: insulin 1 µg/mL).
With `KISEYRHYV` the specific lysis was 30.6% (HN-4 (HLA-A2+ HPV+); 111In release; peptide; concentration not given, 16 h, E:T 25:1 IVS 5, together with: peptide-generated T-cell line).
`B4 (AKAP8)`: “log2 fold change” -0.239 (peptide binding, SILAC pull-down; concentration not given; reference: non-acetylated over acetylated NIT1 peptide).
`IRILQRALF` gave an IC50 of over 20 µM (Mamu-B*08301 MHC class I; peptide binding; peptide, Chinese rhesus macaque).
With `insulin human` the fold change was 1.14 (item: ADCY8 mRNA; EcoHIV-infected mouse, brain; i.p., dose not given; reference: PBS).
`PSETPQAEVGPTGCPHR (cystathionine beta-synthase)` — result for “log2 fold change”: -0.101 (peptide binding, SILAC pull-down; concentration not given; reference: non-acetylated over acetylated NIT1 peptide).
`hexaarginine` gave a kon of 29.1 ± 3 µM⁻¹ s⁻¹ (PorA peptide pore; peptide binding, planar bilayer single-channel recording; 0.5 µM, pH 7.4, +10 mV, trans side, 150 mM KCl).
`caspofungin` — result for “radial growth ratio”: 0.35 and 0.366 and 0.373 (Aspergillus fumigatus; wild type; concentration not given; reference: untreated control).
Under “log2 fold change”, `B5 (C1orf122 protein)` is recorded as 0.941 (peptide binding, SILAC pull-down; concentration not given; reference: non-acetylated over acetylated NIT1 peptide).

Excerpt of the above:
`B4 (AKAP8)`: “log2 fold change” -0.239 (peptide binding, SILAC pull-down; concentration not given; reference: non-acetylated over acetylated NIT1 peptide).
`IRILQRALF` gave an IC50 of over 20 µM (Mamu-B*08301 MHC class I; peptide binding; peptide, Chinese rhesus macaque).
